Values quoted from earlier work, collected from citations in different studies.
Lines come from different studies, so protocols differ. “And” joins repeats or separate records; there may be more than shown. ± marks the error that the study gave.

With CCOc1ccccc1OCCN[C@H](C)Cc1ccc(OC)c(S(N)(=O)=O)c1 the Cmax was 34 nM (human, plasma; concentration not given, median of reported values).
O=C1NC(=O)C(c2ccccc2)(c2ccccc2)N1 has a fraction unbound of 0.088 (mouse).
[Ru+2].c1ccc(-c2ccccn2)nc1.c1ccc(-c2ccccn2)nc1.c1ccc(-c2ccccn2)nc1: “singlet oxygen quantum yield” 0.56 (aerated acetonitrile).
CC(=O)c1c(C)c2cnc(Nc3ccc(N4CCNCC4)cn3)nc2n(C2CCCC2)c1=O — result for “maximum tolerated dose”: 200 mg/kg (female rat).
C=C[C@@H]1C[C@]1(NC(=O)[C@@H]1C[C@@H]2CN1C(=O)[C@H](C(C)(C)C)NC(=O)O[C@@H]1C[C@H]1CCCCCc1nc3ccc(OC)cc3nc1O2)C(=O)NS(=O)(=O)C1CC1: “urinary radioactivity recovery” under 1% (human; dose not given).
Under “maximum tolerated dose”, N.N.[Cl][Pt][Cl] is recorded as about 5 mg/kg (mouse).
c1ccc2c(c1)-c1cccc3c1c-2cc1ccccc13: “amount in tissue” 1.19 ng/well and 0.624 ng/well and 0.651 ng/well (zebrafish embryos, whole embryo; 135.99 ng/well, 48 hpf, single exposure).
The oral bioavailability of CN[C@H](CC(C)C)C(=O)N[C@H]1C(=O)N[C@@H](CC(N)=O)C(=O)N[C@H]2C(=O)N[C@H]3C(=O)N[C@H](C(=O)N[C@H](C(=O)O)c4cc(O)cc(O)c4-c4cc3ccc4O)[C@H](O)c3ccc(c(Cl)c3)Oc3cc2cc(c3O[C@@H]2O[C@H](CO)[C@@H](O)[C@H](O)[C@H]2O[C@H]2C[C@](C)(N)[C@H](O)[C@H](C)O2)Oc2ccc(cc2Cl)[C@H]1O is reported as under 1% (human; oral).
Under “amount in tissue”, c1ccc2c(c1)cc1ccc3cccc4c5ccccc5c2c1c34 is recorded as 0.451 ng/well and 0.3 ng/well and 0.394 ng/well (zebrafish embryos, whole embryo; 756 ng/well, 48 hpf, single exposure).
CCN(CCO)CCCC(C)Nc1ccnc2cc(Cl)ccc12 (centres unmarked) gave a lung concentration of 93 µmol/kg (hamster; intraperitoneal, 50 mg/kg).
For O=S(=O)([O-])C(F)(F)C(F)(F)C(F)(F)C(F)(F)C(F)(F)C(F)(F)C(F)(F)C(F)(F)F.[K+], the clearance half-life was at most 6.2 years (human).
For NC12CC3CC(CC(C3)C1)C2, the fraction unbound was 0.181 (mouse).
COc1ccc(C[C@H](NC(=O)[C@H](C)NC(=O)CN2CCOCC2)C(=O)N[C@@H](Cc2ccccc2)C(=O)C2(C)CO2)cc1 (stereo in doubt) — result for “maximum tolerated dose”: 30 mg/kg (mouse arthritis model; intravenous).
With ClC1=C(Cl)[C@]2(Cl)[C@@H]3[C@@H]4C[C@@H]([C@H]5O[C@@H]45)[C@@H]3[C@@]1(Cl)C2(Cl)Cl the logP was 4.88.
CCN(C)C(=O)Oc1cccc([C@H](C)N(C)C)c1 gave a fraction unbound of 0.341 (mouse).
The Tmax of CC(=O)C[C@@H](c1ccccc1)c1c(O)c2ccccc2oc1=O is reported as 1.33 h (human, fasted; oral, 15 mg single dose, added: racemic warfarin 30 mg).
CO[C@H]1C[C@H](O[C@H]2[C@H](C)[C@@H](O[C@@H]3O[C@H](C)C[C@H](N(C)C)[C@H]3OC(C)=O)[C@@H](C)C[C@@]3(CO3)C(=O)[C@H](C)[C@@H](OC(C)=O)[C@@H](C)[C@@H](C)OC(=O)[C@@H]2C)O[C@@H](C)[C@@H]1OC(C)=O gave an unbound fraction of 0.73 (human liver microsomes 1 mg/mL; literature value).
c1cc2c3c(cccc3c1)CC2: “amount in tissue” 2.1 ng/well and 1.81 ng/well and 1.49 ng/well (zebrafish embryos, whole embryo; 385.5 ng/well, 48 hpf, single exposure).
With Cc1cc(O)ccc1Cl the log Kow was 3.1.
CCCCCOc1ccc(-c2ccc(-c3ccc(C(=O)N[C@H]4C[C@@H](O)[C@@H](O)NC(=O)[C@@H]5[C@@H](O)[C@@H](C)CN5C(=O)[C@H]([C@@H](C)O)NC(=O)[C@H]([C@H](O)[C@@H](O)c5ccc(O)cc5)NC(=O)[C@@H]5C[C@@H](O)CN5C(=O)[C@H]([C@@H](C)O)NC4=O)cc3)cc2)cc1 — result for “volume of distribution”: 40.1 ± 9.6 L (healthy volunteers; 200 mg day 1 then 100 mg days 2-4).
With NC1CCCCC1N.O=C([O-])C(=O)[O-].[Pt+2] (centres unmarked) the C0 was 6.15 µg Pt/mL (refers to: total platinum; mouse, plasma; intraperitoneal, 5 mg Pt/kg).
For COc1ccc(C(CN(C)C)C2(O)CCCCC2)cc1 (centres unmarked), the fraction unbound was 0.19 (mouse).
Under tolerability, Cn1cc2cc(C(F)(F)c3nnc4ccc(-c5cnn(C6CC6)c5)nn34)c(F)cc2n1 is recorded as “not toxic” (mouse, MKN-45 and patient-derived xenografts; dose not given, no deaths or major weight loss).
Under “plasma concentration threshold”, CC[C@H](C)CCCCC(=O)N[C@@H](CCN)C(=O)N[C@H](C(=O)N[C@@H](CCN)C(=O)N[C@H]1CCNC(=O)[C@H]([C@@H](C)O)NC(=O)[C@H](CCN)NC(=O)[C@H](CCN)NC(=O)[C@H](CC(C)C)NC(=O)[C@@H](CC(C)C)NC(=O)[C@H](CCN)NC1=O)[C@@H](C)O is recorded as over 2500 ng/mL (nephrotoxicity risk; patients, plasma).
C[C@@H](O[C@H]1OCCN(Cc2n[nH]c(=O)[nH]2)[C@H]1c1ccc(F)cc1)c1cc(C(F)(F)F)cc(C(F)(F)F)c1 has a fraction unbound of 0.002 (mouse).
c1ccc2c(c1)cc1ccc3cccc4ccc2c1c34 — result for “amount in tissue”: 0.521 ng/well and 0.853 ng/well and 0.744 ng/well and 0.45 ng/well (zebrafish embryos, whole embryo; 630.75 ng/well, 48 hpf, single exposure).
CC(C)CNC(=O)[C@@H](N)Cc1ccc(OP2(=O)CO[C@@H](Cn3cnc4c(N)ncnc43)CO2)cc1 (some centres unmarked) has an oral bioavailability of 39% (mouse; oral).
With COc1ccc(C[C@@H](C)[C@@H](C)Cc2ccc(OC)c(OC)c2)cc1OC the LD50 was 980 mg/kg (rat; intravenous).
For O=C(O)C(F)(F)C(F)(F)C(F)(F)C(F)(F)C(F)(F)C(F)(F)C(F)(F)F, the half-life was 1000 days (human).
With C[C@]12CC[C@H](n3ccnc3)CC1=CC[C@@H]1[C@@H]2CC[C@]2(C)C(n3cnc4ccccc43)=CC[C@@H]12 the oral bioavailability was 49.5% (male CD-1 mice; oral, dose not given).
Cc1c(C(=O)NN2CCCCC2)nn(-c2ccc(Cl)cc2Cl)c1-c1ccc(Cl)cc1 gave a fraction unbound of 0.0005 (dog).
O=C(O)C(F)(F)C(F)(F)C(F)(F)F — result for “plasma fraction unbound”: 0.093 (plasma).
The fraction unbound of O=C(CCCN1CCC(O)(c2ccc(Cl)cc2)CC1)c1ccc(F)cc1 is reported as 0.003 (mouse).
Under “fraction excreted in urine”, CC[C@H](C)C[C@H](C)CCCCCCCCC(=O)N[C@H]1C[C@@H](O)[C@@H](NCCN)NC(=O)[C@@H]2[C@@H](O)CCN2C(=O)[C@H]([C@H](O)CCN)NC(=O)[C@H]([C@H](O)[C@@H](O)c2ccc(O)cc2)NC(=O)[C@@H]2C[C@@H](O)CN2C(=O)[C@H]([C@@H](C)O)NC1=O is recorded as 41% (human; added: radiolabelled compound).
For O=C(O)C(F)(F)C(F)(F)C(F)(F)C(F)(F)C(F)(F)C(F)(F)C(F)(F)F, the pKa was under 1 (ESI-MS, literature value).
For CC(C)[C@H](N)C(=O)NCCCS(=O)(=O)O, the AUC(0-12h) was 11200 ng·h/mL (human, plasma; 265 mg twice daily).
COC(=O)[C@H]1[C@@H](c2ccc(C)cc2)C[C@@H]2CC[C@H]1N2C/C=C/C[18F] has a tissue concentration of 1.01 MBq/cc and 0.765 MBq/cc and 0.826 MBq/cc and 0.932 MBq/cc and 0.944 MBq/cc (PET; rat, striatum; dose not given, 24 min).
COC(=O)[C@@H](N)Cc1ccc(OP2(=O)CO[C@@H](Cn3cnc4c(N)ncnc43)CO2)cc1 (some centres unmarked) gave a half-life of 0.229 days (PBS; pH 6.5, Rp isomer).
With CN(C)CCCN1c2ccccc2Sc2ccc(Cl)cc21 the fraction unbound was 0.003 (dog).
For C1=Cc2cccc3cccc1c23, the bioconcentration factor was 269 L/kg (fish; dose not given, experimental mean).
Under “increase in AUCinf”, CN(C)C(=O)c1cc2cnc(Nc3ccc(N4CCNCC4)cn3)nc2n1C1CCCC1 is recorded as 3.8 fold (refers to: midazolam; human; 400 mg once daily, 8 days; relative to: midazolam alone).

Excerpt of the above:
Under “fraction excreted in urine”, CC[C@H](C)C[C@H](C)CCCCCCCCC(=O)N[C@H]1C[C@@H](O)[C@@H](NCCN)NC(=O)[C@@H]2[C@@H](O)CCN2C(=O)[C@H]([C@H](O)CCN)NC(=O)[C@H]([C@H](O)[C@@H](O)c2ccc(O)cc2)NC(=O)[C@@H]2C[C@@H](O)CN2C(=O)[C@H]([C@@H](C)O)NC1=O is recorded as 41% (human; added: radiolabelled compound).
For C1=Cc2cccc3cccc1c23, the bioconcentration factor was 269 L/kg (fish; dose not given, experimental mean).
c1ccc2c(c1)cc1ccc3cccc4ccc2c1c34 — result for “amount in tissue”: 0.521 ng/well and 0.853 ng/well and 0.744 ng/well and 0.45 ng/well (zebrafish embryos, whole embryo; 630.75 ng/well, 48 hpf, single exposure).
COC(=O)[C@H]1[C@@H](c2ccc(C)cc2)C[C@@H]2CC[C@H]1N2C/C=C/C[18F] has a tissue concentration of 1.01 MBq/cc and 0.765 MBq/cc and 0.826 MBq/cc and 0.932 MBq/cc and 0.944 MBq/cc (PET; rat, striatum; dose not given, 24 min).
